{"data": "Measurements from different studies", "medium": "plasma"}
{"SMILES": "CCC(CC)n1c(Cc2ccco2)nc2cc(C(=O)N[C@@H](CC(=O)O)c3ccccc3)ccc21", "system": "male Sprague-Dawley rat", "conditions": "intraperitoneal, 10 mg/kg", "quantity": "MRT(0-inf)", "result": "2.4 h"}
{"SMILES": "O=c1c(-c2ccc(Cl)c(CN3CCOCC3)c2)coc2cc(O)ccc12", "system": "male Sprague-Dawley rat", "conditions": "intravenous, 2 mg/kg", "quantity": "MRT", "result": "3.71 h"}
{"SMILES": "CCCN(C)c1cc(C(F)(F)F)nc(SCCC(=O)NCc2ccco2)n1", "system": "male Wistar rat", "conditions": "intraperitoneal, 25 mg/kg, single dose", "quantity": "MRT", "result": "1.18 h"}
{"SMILES": "Cc1cc2c(cc1O)C=C1C=CC(=O)C(C)(C)[C@H]1CC2", "system": "male Sprague-Dawley rat", "conditions": "oral, 20 mg/kg", "quantity": "MRT(0-inf)", "result": "12.4 h"}
{"SMILES": "CCCCC(=O)Nc1ccc(-c2ccc3ncn(CCC)c(=O)c3c2)cn1", "system": "male rat", "conditions": "intravenous, 2.5 mg/kg", "quantity": "MRT", "result": "4.04 h"}
{"SMILES": "COc1cc(-c2cc(=O)c3ccc(OCCCn4c(Cl)nc5ccccc54)cc3o2)cc(OC)c1OC", "system": "male Sprague-Dawley rat", "conditions": "intravenous, 10 mg/kg", "quantity": "MRT(0-inf)", "result": "3.7 h"}
{"SMILES": "CC1(C)C(NC(=O)C(=NOC2(C(=O)O)CC2)c2csc(N)n2)C(=O)N1OS(=O)(=O)O (centres unmarked)", "system": "rat", "conditions": "intravenous, 10 mg/kg, single dose", "quantity": "MRT", "result": "0.55 h"}
{"SMILES": "CC(C)(C)C(=O)Nc1ccc2[nH]c(CN3CCC(N(CCCN4CCOCC4)CC4OC(n5cnc6c(N)ncnc65)C(O)C4O)CC3)nc2c1 (centres unmarked)", "system": "male Sprague-Dawley rat", "conditions": "intravenous, 20 mg/kg", "quantity": "MRT(0-t)", "result": "0.74 h"}
{"SMILES": "Cc1cc(/C=C/C#N)cc(C)c1Oc1nc(NC2CCN(Cc3ccc(S(C)(=O)=O)cc3)CC2)nc2ncccc12", "system": "Sprague-Dawley rat", "conditions": "oral, 20 mg/kg", "quantity": "MRT(0-t)", "result": "3.37 h"}
{"SMILES": "CCC(CC)n1c(Cc2cccs2)nc2cc(C(=O)N[C@@H](CC(=O)O)c3ccccc3)ccc21", "system": "male Sprague-Dawley rat", "conditions": "intravenous, 1 mg/kg", "quantity": "MRT(0-inf)", "result": "0.92 h"}
{"SMILES": "OC1(C(F)(F)F)CCN(c2nc(Nc3ccnc(C(F)(F)F)c3)nc(-c3cccc(C(F)(F)F)n3)n2)C1 (centres unmarked)", "system": "Sprague-Dawley rat", "conditions": "oral, 10 mg/kg", "quantity": "MRT(0-inf)", "result": "24.7 h"}
{"note": "Repeated from above:"}
{"SMILES": "CCCCC(=O)Nc1ccc(-c2ccc3ncn(CCC)c(=O)c3c2)cn1", "system": "male rat", "conditions": "intravenous, 2.5 mg/kg", "quantity": "MRT", "result": "4.04 h"}
